# Published values from different studies.
# Values joined by “and” are separate records of one study, mostly repeats; a detail may differ. ± marks the error that the study gave. No end group written: not given here.
# GSTP1: Glutathione S-transferase P (GSTP1, Homo sapiens, UniProt P09211)
# Kynurenine 3-monooxygenase: Kynurenine 3-monooxygenase (Pseudomonas fluorescens, UniProt Q84HF5)
# CYP1B1: Cytochrome P450 1B1 (CYP1B1, Homo sapiens, UniProt Q16678)
# B1: bicyclic; chain ACSMCHPQGDFCYWACSG (also: bicyclic or more (positions not given here))
Substance,target,assay,system,setting,scale,Kd
Nc1nc2c(ncn2[C@H]2C[C@H](O)[C@@H](COP(=O)(O)OP(=O)(O)OP(=O)(O)O)O2)c(=O)[nH]1,"DNA-directed DNA polymerase (43, Escherichia phage RB69, UniProt Q38087, D222A/D327A)",pre-steady-state kinetics,,dNTP incorporation opposite tC°,,140 ± 18 µM
CC1=C(/C=C/C(C)=C/C=C/C(C)=C/C=C/C=C(C)/C=C/C=C(C)/C=C/C2=C(C)C[C@@H](O)CC2(C)C)C(C)(C)C[C@H](O)C1,GSTP1,"binding, SPR",,,,0.15 µM
[Fe+2],"methionine aminopeptidase (Acinetobacter baumannii, UniProt V5VCW7)","metal binding, activator, activity titration",ATCC 17978,"divalent metal ion Kd, together with: Met-AMC substrate",,0.54 µM
[C-]#[O+],ferrous H-NOX (Nostoc sp.),stopped-flow absorbance,,24 °C,,< 25 µM
Nc1ccccc1C(=O)CC(N)C(=O)O (centres unmarked),Kynurenine 3-monooxygenase,fluorescence polarization displacement,,"pH 7.0, together with: 30 nM fluorescent probe",,180 ± 40 µM
Nc1nc2c(ncn2[C@H]2C[C@H](O)[C@@H](COP(=O)(O)OP(=O)(O)OP(=O)(O)O)O2)c(=O)[nH]1,"DNA polymerase IV, with DNA (dbh, Saccharolobus solfataricus, UniProt Q97W02)","dNTP incorporation, substrate, single-turnover kinetics",,"37 °C, insertion opposite lesion, together with: DNA with dG-C8-N-ABA lesion, Dpo4 120 nM",,1200 ± 400 µM
c1ccc2c(c1)-c1cccc3c1c-2cc1ccccc13,CYP1B1,"binding, fluorescence",,pH 7.4,,1.1 µM and < 2.5 µM
CC[C@H](C)[C@H](NC(=O)[C@@H](CCCNC(=N)N)NC(=O)[C@H](CCCNC(=N)N)NC(=O)[C@@H]1CCCN1C(=O)[C@@H]1CCCN1C(=O)[C@H](CCCNC(=N)N)NC(=O)[C@@H]1CCCN1C(=O)[C@H](CCCNC(=N)N)NC(=O)[C@@H]1CCCN1C(=O)[C@H](CC(C)C)NC(=O)[C@H](Cc1ccc(O)cc1)NC(=O)[C@@H]1CCCN1C(=O)[C@@H]1CCCN1C(=O)[C@H](CCCCN)NC(=O)[C@H](CC(=O)O)NC(=O)[C@@H](N)C(C)C)C(=O)N[C@@H](Cc1ccc(O)cc1)C(=O)N[C@@H](CC(N)=O)C(=O)N[C@H](CCCNC(=N)N)C(N)=O,70S ribosome Acinetobacter baumannii ATCC 15308,"binding, fluorescence polarization",,"90 min, pH 7.6, 28 °C, together with: fluorescein-labelled peptide",,0.073 ± 0.004 µM
TAMRA-ATP,"mutS (Escherichia coli, UniProt P23909, D693V)",fluorescence anisotropy,,"room temperature, no DNA",,20.7 ± 1.6 µM
C#Cc1cc2cccc3ccc4cccc1c4c32,CYP1B1,"binding, fluorescence",,pH 7.4,,< 2.5 µM and 0.9 µM
CN(C)c1ccc(C(=C2C=CC(=[N+](C)C)C=C2)c2ccccc2)cc1,"HTH-type transcriptional regulator QacR (qacR, Staphylococcus aureus, UniProt P0A0N4)","binding, tryptophan fluorescence quenching",,pH 7.5,,1.23 ± 0.14 µM
B1,"Streptavidin (Streptomyces avidinii, UniProt P22629)",yeast display flow cytometry,,,,0.0021 µM
[Cl][Mn][Cl],"Genome polyprotein, NS3 helicase domain (Hepatitis C virus genotype 1b, UniProt Q9WMX2)","binding, FRET",,"pH 6.25, together with: 2 µM mantADP-BeF3",,40 µM
Fluorescein-12-ATP,"Maintenance of carboxysome distribution protein A (mcdA, Gloeothece citriformis, UniProt B7KMS4, D38A/K151A)",fluorescence polarization,,"pH 7.5, 25 °C, D38A mutant",,3.6 ± 0.5 µM
[Ni+2],"methionine aminopeptidase (Acinetobacter baumannii, UniProt A0A7U4DGZ4)","metal binding, activator, activity titration",ATCC 17978,"divalent metal ion Kd, together with: Met-AMC substrate",,0.26 µM
CC1=C(/C=C/C(C)=C/C=C/C(C)=C/CO)C(C)(C)CCC1,Xenopus IRBP W450F,"binding, retinol fluorescence enhancement",,,,0.48 ± 0.05 µM
CC[C@H](C)[C@H](NC(=O)[C@H](CCC(=O)O)NC(=O)[C@H](C)NC(=O)[C@H](CCC(N)=O)NC(=O)[C@H](CO)NC(=O)[C@H](CC(C)C)NC(=O)[C@@H](NC(=O)[C@H](CO)NC(=O)[C@H](CC(=O)O)NC(=O)CNC(=O)[C@@H](N)CCSC)[C@@H](C)CC)C(=O)N[C@@H](CC(=O)O)C(=O)N[C@@H](C)C(=O)N[C@@H](CC(C)C)C(=O)N[C@@H](CC(C)C)C(=O)N[C@@H](CC(N)=O)C(=O)O,"cheY, phosphono-modified (Escherichia coli, UniProt P0AE67, D57C/T87I)",,,,,not detected
CC(=O)N[C@@H](CC(C)C)C(=O)N[C@@H](CCCCN)C(=O)N[C@@H](CCCCN)C(=O)N[C@@H](CC(C)C)C(=O)N[C@@H](Cc1c[nH]c2ccccc12)C(=O)N[C@@H](CCCCN)C(=O)N[C@@H](CC(C)C)C(=O)N[C@@H](CC(C)C)C(=O)N[C@@H](CCCCN)C(=O)N[C@@H](CCCCN)C(=O)N[C@@H](CC(C)C)C(=O)N[C@@H](CC(C)C)C(=O)N[C@@H](CCCCN)C(=O)N[C@@H](CC(C)C)C(=O)N[C@@H](C)C(=O)NCC(N)=O,HCV IRES domain IV hairpin,competitive fluorescence anisotropy,,"pH 7.4, 20 °C, together with: rhodamine-Rev peptide",,0.0028 ± 0.0002 µM
CC(C)[C@H](NC(=O)[C@H](CC(N)=O)NC(=O)CNC(=O)[C@H](CC(=O)O)NC(=O)[C@H](CCCNC(=N)N)NC(=O)[C@H](CC(N)=O)NC(=O)[C@@H](N)CC(=O)O)C(=O)N[C@@H](Cc1ccc(O)cc1)C(=O)N[C@@H](Cc1ccc(O)cc1)C(=O)N[C@@H](Cc1ccccc1)C(=O)O,"Serine endoprotease DegS (degS, Escherichia coli, UniProt P0AEE3, D320A)",,,,,0.2 µM
phosphate,"t/rI (Enterobacteria phage T4, UniProt P06808+P13304)","binding, fluorescence quenching",,pH 7.5,,18600 µM
O=C(O[C@@H]1Cc2c(O)cc(O)cc2O[C@@H]1c1cc(O)c(O)c(O)c1)c1cc(O)c(O)c(O)c1,"Beta-2-microglobulin, Cu(II)-bound (B2M, Homo sapiens, UniProt P61769)","binding to Cu(II)-β2m, covalent labelling MS (DEPC, Lys91)",,together with: Cu(II) 60 µM,,11 ± 5 µM
CC1=C(/C=C/C(C)=C/C=C/C(C)=C/C=C/C=C(C)/C=C/C=C(C)/C=C/C2=C(C)C(=O)[C@@H](O)CC2(C)C)C(C)(C)C[C@H](O)C1=O,GSTP1,"binding, SPR",,,,1.26 µM
CC[C@H](C)[C@H](NC(=O)[C@H](C)NC(=O)[C@H](CO)NC(=O)[C@@H](NC(=O)[C@H](CCC(=O)O)NC(=O)[C@H](CCC(=O)O)NC(=O)[C@H](CCC(N)=O)NC(=O)[C@H](CCCCN)NC(=O)[C@H](CCCNC(=N)N)NC(=O)[C@@H](N)CCCCN)C(C)C)C(=O)N[C@H](C(=O)N[C@H](C(=O)N[C@@H](CCC(N)=O)C(=O)N[C@@H](CCCNC(=N)N)C(=O)N[C@@H](C)C(=O)N[C@@H](Cc1ccc(O)cc1)C(=O)N[C@@H](CCCNC(=N)N)C(=O)N[C@@H](CCCNC(=N)N)C(=O)N[C@@H](Cc1ccc(O)cc1)C(=O)N[C@@H](CC(C)C)C(=O)N[C@@H](CC(C)C)C(=O)N[C@@H](CCCCN)C(=O)N[C@@H](CCC(N)=O)C(=O)N[C@@H](CCCCN)C(=O)N[C@H](C(=O)N[C@@H](CCCCN)C(=O)N[C@@H](CCCCN)C(=O)O)C(C)C)[C@@H](C)CC)C(C)C,"Calmodulin (CAM, Paramecium tetraurelia, UniProt P07463)","binding, fluorescence anisotropy",Paramecium,"pH 7.4, 22 °C, together with: Ca2+-saturated calmodulin (1-148)",upper limit,≤ 0.01 µM
C=C1[C@@H]2CC[C@H]3[C@]4(C)C[C@H](O[C@@H]5O[C@H](CO)[C@@H](OS(=O)(=O)O)[C@H](OS(=O)(=O)O)[C@H]5OC(=O)CC(C)C)CC(C(=O)O)(C(=O)O)[C@H]4CC[C@]3(C2)[C@H]1O,"SLC25A4 (Homo sapiens, UniProt P12235)","binding, SPR",,,,2.03 µM
C#Cc1cc2ccccc2c2ccccc12,CYP1B1,"binding, fluorescence",,pH 7.4,,< 2.5 µM and 1.6 µM
CC(=O)N[C@@H](CC(C)C)C(=O)N[C@@H](CCCCN)C(=O)N[C@@H](CCCCN)C(=O)N[C@@H](CC(C)C)C(=O)N[C@@H](CC(C)C)C(=O)N[C@@H](CCCCN)C(=O)N[C@@H](CC(C)C)C(=O)N[C@@H](CC(C)C)C(=O)N[C@@H](CCCCN)C(=O)N[C@@H](CCCCN)C(=O)N[C@@H](Cc1c[nH]c2ccccc12)C(=O)N[C@@H](CC(C)C)C(=O)N[C@@H](CCCCN)C(=O)N[C@@H](CC(C)C)C(=O)N[C@@H](C)C(=O)NCC(N)=O,HCV IRES domain IV hairpin,competitive fluorescence anisotropy,,"pH 7.4, 20 °C, together with: rhodamine-Rev peptide",,0.0044 ± 0.0003 µM
Nc1nc2c(ncn2[C@@H]2O[C@H](COP(=O)(O)O)[C@@H](O)[C@H]2O)c(=O)[nH]1,"GMP reductase (GMPR, Leishmania major, UniProt Q4QEB3)",binding,,,,261 ± 38 µM
Nc1nc2c(c(=O)[nH]1)NC(CNc1ccc(C(=O)N[C@@H](CCC(=O)N[C@@H](CCC(=O)N[C@@H](CCC(=O)N[C@@H](CCC(=O)N[C@@H](CCC(=O)O)C(=O)O)C(=O)O)C(=O)O)C(=O)O)C(=O)O)cc1)CN2 (mixture of isomers),"KDM1A (Homo sapiens, UniProt O60341)",binding,,pH 7.5,,2.8 µM
C[n+]1cc2c3c(ccc2c2ccc4cc5c(cc4c21)OCO5)OCO3,"L-ornithine N(5)-monooxygenase (Neosartorya fumigata, UniProt E9QYP0)",fluorescence polarization displacement,,"pH 7.0, together with: 30 nM fluorescent probe",,110 ± 10 µM
5′-methylthioadenosine,"MTAP (Homo sapiens, UniProt Q13126)","ligand, isothermal titration calorimetry",,"pH 7.4, 25 °C, second set of sites",,0.7 µM
NC(=O)c1ccc[n+]([C@@H]2O[C@H](COP(=O)([O-])OP(=O)(O)OC[C@H]3O[C@@H](n4cnc5c(N)ncnc54)[C@H](O)[C@@H]3O)[C@@H](O)[C@H]2O)c1,Kynurenine 3-monooxygenase,fluorescence polarization displacement,,"pH 7.0, together with: 30 nM fluorescent probe",,670 ± 70 µM
Nc1ncnc2c1ncn2[C@H]1C[C@H](O)[C@@H](COP(=O)(O)OP(=O)(O)OP(=O)(O)O)O1,"DNA-directed DNA polymerase, with primer/template (43, Escherichia phage RB69, UniProt Q38087, D222A/D327A/Y567A)",fluorescence titration,,dNTP opposite tC°,,100 ± 40 µM
